Measured values of several laboratories.
Compare with care: the assays were run in different laboratories. ± marks the error that the study gave.
Medium: plasma

Structure (SMILES)	test	test system	setting	Cmax
CC[C@@]1(O)C(=O)OCc2c1cc1n(c2=O)Cc2cc3c(CN(C)C)c(O)ccc3nc2-1	–	human patients	oral, 2.5 mg daily for 5 days, day 5 cycle 1, geometric mean, alone	7.52 ng/mL
CCCCCOc1ccc(-c2cc(-c3ccc(C(=O)N[C@H]4C[C@@H](O)[C@@H](O)NC(=O)[C@@H]5[C@@H](O)[C@@H](C)CN5C(=O)[C@H]([C@H](O)CC(N)=O)NC(=O)[C@H]([C@H](O)[C@@H](O)c5ccc(O)c(OS(=O)(=O)O)c5)NC(=O)[C@@H]5C[C@@H](O)CN5C(=O)[C@H]([C@@H](C)O)NC4=O)cc3)no2)cc1	–	human paediatric patients 6 to sample C years	intravenous, 3 mg/kg once daily, day 7, median	20800 ng/mL
Oc1ccc2cc3ccc4cccc5ccc(c2c1)c3c45	UPLC-AMS	human	oral, 100 ng of [14C]-BaP	8.13 ± 6.96 fg BaP equivalents/mL
Cc1ncc2n1-c1ccc(Cl)cc1C(c1ccccc1F)=NC2	–	human	oral, 7.5 mg, alone before amenamevir 400 mg	30.2 ± 22.7 ng/mL
CN1CC(=O)N2[C@H](c3ccc4c(c3)OCO4)c3[nH]c4ccccc4c3C[C@@H]2C1=O	–	healthy adult humans, both sexes	oral, 10/40 mg fixed-dose combination, single dose, fed, high-fat breakfast	677 ng/mL
COC(=O)N[C@H](C(=O)N1CCC[C@H]1C(=O)Nc1ccc([C@@H]2CC[C@@H](c3ccc(NC(=O)[C@@H]4CCCN4C(=O)[C@@H](NC(=O)OC)C(C)C)cc3)N2c2ccc(C(C)(C)C)cc2)cc1)C(C)C	–	healthy human volunteers	oral, dose not given, together with: digoxin plus 2D regimen	147 ng/mL
COc1ccc(C[C@@H]2NC(=O)[C@H]([C@@H](C)O)NC(=O)[C@@H]3[C@@H]4CCN3C(=O)[C@@H]3Cc5cn(c6ccc(F)cc56)CCCCCCN(Cc5ccc(cc5)CCNC(=O)[C@]5(C)CCCN5C2=O)C(=O)CCC(=O)N[C@@H](C)C(=O)N[C@H](CNC(=O)CCCCC[N+](C)(C)C)C(=O)N[C@@H](Cc2cccc(c2)CNC(=O)CO4)C(=O)N3)cc1	–	fasted healthy humans	oral, 100 mg single dose, with 1800 mg Labrasol, geometric mean	46.2 nM
CCCCCOc1ccc(-c2ccc(-c3ccc(C(=O)N[C@H]4C[C@@H](O)[C@@H](O)NC(=O)[C@@H]5[C@@H](O)[C@@H](C)CN5C(=O)[C@H]([C@@H](C)O)NC(=O)[C@H]([C@H](O)[C@@H](O)c5ccc(O)cc5)NC(=O)[C@@H]5C[C@@H](O)CN5C(=O)[C@H]([C@@H](C)O)NC4=O)cc3)cc2)cc1	–	human neonates	intravenous, 3 mg/kg loading dose	4000 ng/mL
CC[C@H](C)[C@H](NC(=O)[C@H](CC(C)C)NC(=O)[C@H](Cc1c[nH]c2ccccc12)NC(=O)[C@H](CCC(N)=O)NC(=O)[C@@H](NC(=O)[C@H](Cc1ccccc1)NC(=O)[C@H](C)NC(=O)[C@H](CCCCNC(=O)COCCOCCNC(=O)COCCOCCNC(=O)CC[C@H](NC(=O)CCCCCCCCCCCCCCCCCCC(=O)O)C(=O)O)NC(=O)[C@H](CCC(N)=O)NC(=O)[C@H](C)NC(=O)[C@@H](NC(=O)[C@H](CCCCN)NC(=O)[C@H](CC(=O)O)NC(=O)[C@H](CC(C)C)NC(=O)C(C)(C)NC(=O)[C@@H](NC(=O)[C@H](CO)NC(=O)[C@H](Cc1ccc(O)cc1)NC(=O)[C@H](CC(=O)O)NC(=O)[C@H](CO)NC(=O)[C@@H](NC(=O)[C@H](Cc1ccccc1)NC(=O)[C@@H](NC(=O)CNC(=O)[C@H](CCC(=O)O)NC(=O)C(C)(C)NC(=O)[C@@H](N)Cc1ccc(O)cc1)[C@@H](C)O)[C@@H](C)O)[C@@H](C)CC)[C@@H](C)CC)C(C)C)C(=O)N[C@@H](C)C(=O)NCC(=O)NCC(=O)N1CCC[C@H]1C(=O)N[C@@H](CO)C(=O)N[C@@H](CO)C(=O)NCC(=O)N[C@@H](C)C(=O)N1CCC[C@H]1C(=O)N1CCC[C@H]1C(=O)N1CCC[C@H]1C(=O)N[C@@H](CO)C(N)=O	–	human, severe hepatic impairment	subcutaneous, 5 mg single dose, geometric LSM, weight-adjusted	510 ng/mL
Cc1cnc(C(=O)N[C@H]2CCCCC/C=C\[C@@H]3C[C@@]3(C(=O)NS(=O)(=O)C3CC3)NC(=O)[C@@H]3C[C@@H](Oc4nc5ccccc5c5ccccc45)CN3C2=O)cn1	–	healthy human volunteers	oral, dose not given, together with: escitalopram plus 2D regimen	540 ng/mL

A few entries again:
Structure (SMILES)	test	test system	setting	Cmax
CN1CC(=O)N2[C@H](c3ccc4c(c3)OCO4)c3[nH]c4ccccc4c3C[C@@H]2C1=O	–	healthy adult humans, both sexes	oral, 10/40 mg fixed-dose combination, single dose, fed, high-fat breakfast	677 ng/mL
